Measured values of several laboratories.
Each line is one published result; not all experiments were run side by side. “And” joins repeats or separate records; there may be more than shown. Numbers after ± are the reported error.
CTSB: Cathepsin B (CTSB, Homo sapiens, UniProt P07858)
CYP3A4: Cytochrome P450 3A4 (CYP3A4, Homo sapiens, UniProt P08684)
Chain of UniProt P08684 (whole entry, looked up): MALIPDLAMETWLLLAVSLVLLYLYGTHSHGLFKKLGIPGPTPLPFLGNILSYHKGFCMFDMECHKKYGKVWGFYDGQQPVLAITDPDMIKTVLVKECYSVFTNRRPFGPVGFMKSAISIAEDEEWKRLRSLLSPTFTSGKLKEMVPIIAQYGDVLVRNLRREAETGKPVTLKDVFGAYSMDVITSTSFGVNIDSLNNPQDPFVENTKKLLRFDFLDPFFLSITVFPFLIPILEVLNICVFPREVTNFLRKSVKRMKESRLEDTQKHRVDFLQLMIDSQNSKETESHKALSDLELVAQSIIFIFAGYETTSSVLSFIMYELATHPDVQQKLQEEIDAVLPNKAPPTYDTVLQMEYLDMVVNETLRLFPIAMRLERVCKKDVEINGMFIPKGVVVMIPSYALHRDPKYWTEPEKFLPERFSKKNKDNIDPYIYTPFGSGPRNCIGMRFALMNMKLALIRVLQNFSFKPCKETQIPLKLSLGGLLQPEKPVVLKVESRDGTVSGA
CACNA1C: Voltage-dependent L-type calcium channel subunit alpha-1C (CACNA1C, Homo sapiens, UniProt Q13936)
Chain of UniProt Q13936 (whole entry, looked up): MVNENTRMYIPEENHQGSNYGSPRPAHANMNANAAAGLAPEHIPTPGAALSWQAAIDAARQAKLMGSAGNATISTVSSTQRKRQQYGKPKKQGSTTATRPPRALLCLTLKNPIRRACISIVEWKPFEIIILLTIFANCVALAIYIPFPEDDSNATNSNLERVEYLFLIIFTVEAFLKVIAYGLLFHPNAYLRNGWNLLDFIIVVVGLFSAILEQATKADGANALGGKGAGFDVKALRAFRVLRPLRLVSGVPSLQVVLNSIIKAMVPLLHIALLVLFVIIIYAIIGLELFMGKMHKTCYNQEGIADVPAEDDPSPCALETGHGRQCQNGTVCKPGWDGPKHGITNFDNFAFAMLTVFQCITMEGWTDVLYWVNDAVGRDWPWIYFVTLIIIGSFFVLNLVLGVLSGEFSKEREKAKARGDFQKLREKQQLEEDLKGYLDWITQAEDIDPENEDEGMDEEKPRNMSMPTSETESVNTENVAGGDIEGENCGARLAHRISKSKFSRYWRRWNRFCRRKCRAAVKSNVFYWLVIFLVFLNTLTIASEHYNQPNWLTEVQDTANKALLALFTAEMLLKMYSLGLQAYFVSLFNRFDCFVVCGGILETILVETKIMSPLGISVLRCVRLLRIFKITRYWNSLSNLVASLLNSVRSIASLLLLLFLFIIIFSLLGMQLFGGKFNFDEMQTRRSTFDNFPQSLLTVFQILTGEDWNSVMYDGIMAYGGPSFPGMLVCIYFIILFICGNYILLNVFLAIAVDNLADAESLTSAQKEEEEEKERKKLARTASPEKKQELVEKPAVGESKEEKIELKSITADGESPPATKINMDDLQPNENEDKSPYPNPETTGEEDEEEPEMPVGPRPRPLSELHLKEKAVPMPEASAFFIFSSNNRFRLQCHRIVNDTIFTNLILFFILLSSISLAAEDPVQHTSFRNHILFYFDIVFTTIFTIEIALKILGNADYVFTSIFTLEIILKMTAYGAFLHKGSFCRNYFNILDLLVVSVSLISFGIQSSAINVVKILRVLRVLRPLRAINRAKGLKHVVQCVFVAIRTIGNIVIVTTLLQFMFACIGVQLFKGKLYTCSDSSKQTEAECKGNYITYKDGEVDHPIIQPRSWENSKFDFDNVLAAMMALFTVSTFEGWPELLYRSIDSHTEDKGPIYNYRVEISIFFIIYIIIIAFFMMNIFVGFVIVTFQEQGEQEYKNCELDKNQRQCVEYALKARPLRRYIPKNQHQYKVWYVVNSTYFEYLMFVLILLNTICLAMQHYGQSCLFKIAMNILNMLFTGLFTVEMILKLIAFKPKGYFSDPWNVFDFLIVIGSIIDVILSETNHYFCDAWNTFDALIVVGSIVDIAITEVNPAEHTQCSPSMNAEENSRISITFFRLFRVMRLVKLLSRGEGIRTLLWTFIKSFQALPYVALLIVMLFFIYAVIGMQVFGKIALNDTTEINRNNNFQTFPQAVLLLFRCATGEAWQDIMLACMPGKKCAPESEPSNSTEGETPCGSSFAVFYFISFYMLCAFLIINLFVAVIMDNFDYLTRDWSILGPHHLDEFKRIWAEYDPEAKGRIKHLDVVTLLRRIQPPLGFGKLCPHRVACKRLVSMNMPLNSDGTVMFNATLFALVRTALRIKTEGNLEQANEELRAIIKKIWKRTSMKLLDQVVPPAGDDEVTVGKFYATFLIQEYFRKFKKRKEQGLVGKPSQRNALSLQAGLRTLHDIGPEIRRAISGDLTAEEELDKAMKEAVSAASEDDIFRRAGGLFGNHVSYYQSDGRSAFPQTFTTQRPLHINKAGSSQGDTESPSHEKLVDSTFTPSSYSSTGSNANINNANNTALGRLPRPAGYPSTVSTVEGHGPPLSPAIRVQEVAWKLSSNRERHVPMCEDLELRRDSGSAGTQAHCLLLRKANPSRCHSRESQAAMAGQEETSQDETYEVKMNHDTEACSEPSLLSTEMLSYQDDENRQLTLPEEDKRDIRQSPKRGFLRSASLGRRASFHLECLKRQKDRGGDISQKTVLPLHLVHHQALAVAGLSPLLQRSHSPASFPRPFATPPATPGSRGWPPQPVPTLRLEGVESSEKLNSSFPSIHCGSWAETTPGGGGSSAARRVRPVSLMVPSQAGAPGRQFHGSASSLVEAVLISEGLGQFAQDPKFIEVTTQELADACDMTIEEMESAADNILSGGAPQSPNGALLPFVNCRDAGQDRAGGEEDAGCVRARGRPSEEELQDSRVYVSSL
Chain of UniProt P05178 (whole entry, looked up): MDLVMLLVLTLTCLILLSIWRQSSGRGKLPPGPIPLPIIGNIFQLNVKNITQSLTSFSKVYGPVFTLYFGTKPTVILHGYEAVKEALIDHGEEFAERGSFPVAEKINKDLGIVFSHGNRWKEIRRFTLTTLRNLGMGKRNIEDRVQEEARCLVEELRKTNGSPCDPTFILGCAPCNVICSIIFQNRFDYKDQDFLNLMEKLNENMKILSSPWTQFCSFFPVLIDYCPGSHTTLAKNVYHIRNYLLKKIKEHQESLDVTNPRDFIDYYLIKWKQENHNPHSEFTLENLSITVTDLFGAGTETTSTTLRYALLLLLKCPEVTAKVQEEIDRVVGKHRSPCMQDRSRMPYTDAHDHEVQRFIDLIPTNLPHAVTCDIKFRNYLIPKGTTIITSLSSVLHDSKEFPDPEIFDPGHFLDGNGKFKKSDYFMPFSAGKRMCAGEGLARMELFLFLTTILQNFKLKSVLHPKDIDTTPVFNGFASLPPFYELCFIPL
Chain of UniProt P16257 (whole entry, looked up): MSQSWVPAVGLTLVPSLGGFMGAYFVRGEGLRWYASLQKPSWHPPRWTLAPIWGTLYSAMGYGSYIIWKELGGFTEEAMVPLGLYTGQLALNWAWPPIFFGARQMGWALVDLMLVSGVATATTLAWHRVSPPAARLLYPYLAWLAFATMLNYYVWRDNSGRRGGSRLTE
Chain of UniProt P14780 (whole entry, looked up): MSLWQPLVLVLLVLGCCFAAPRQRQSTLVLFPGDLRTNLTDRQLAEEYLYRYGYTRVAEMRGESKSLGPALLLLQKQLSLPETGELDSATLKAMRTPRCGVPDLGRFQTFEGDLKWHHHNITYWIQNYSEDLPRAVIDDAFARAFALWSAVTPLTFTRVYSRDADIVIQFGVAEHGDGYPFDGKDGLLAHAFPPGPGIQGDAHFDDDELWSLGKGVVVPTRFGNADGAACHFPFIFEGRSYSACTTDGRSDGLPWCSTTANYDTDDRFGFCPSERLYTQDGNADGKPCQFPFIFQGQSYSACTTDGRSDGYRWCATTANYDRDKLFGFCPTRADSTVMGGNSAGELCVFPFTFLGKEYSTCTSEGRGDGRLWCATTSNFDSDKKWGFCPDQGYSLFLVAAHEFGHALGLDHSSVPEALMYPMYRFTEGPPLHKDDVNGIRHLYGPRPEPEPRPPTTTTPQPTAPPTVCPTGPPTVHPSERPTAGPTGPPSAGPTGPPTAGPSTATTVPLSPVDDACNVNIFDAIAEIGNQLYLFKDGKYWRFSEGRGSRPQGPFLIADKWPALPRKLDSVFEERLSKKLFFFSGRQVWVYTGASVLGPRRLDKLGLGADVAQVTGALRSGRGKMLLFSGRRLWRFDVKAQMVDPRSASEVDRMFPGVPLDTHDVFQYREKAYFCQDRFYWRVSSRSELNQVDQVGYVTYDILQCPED
Chain of UniProt O60502 (whole entry, looked up): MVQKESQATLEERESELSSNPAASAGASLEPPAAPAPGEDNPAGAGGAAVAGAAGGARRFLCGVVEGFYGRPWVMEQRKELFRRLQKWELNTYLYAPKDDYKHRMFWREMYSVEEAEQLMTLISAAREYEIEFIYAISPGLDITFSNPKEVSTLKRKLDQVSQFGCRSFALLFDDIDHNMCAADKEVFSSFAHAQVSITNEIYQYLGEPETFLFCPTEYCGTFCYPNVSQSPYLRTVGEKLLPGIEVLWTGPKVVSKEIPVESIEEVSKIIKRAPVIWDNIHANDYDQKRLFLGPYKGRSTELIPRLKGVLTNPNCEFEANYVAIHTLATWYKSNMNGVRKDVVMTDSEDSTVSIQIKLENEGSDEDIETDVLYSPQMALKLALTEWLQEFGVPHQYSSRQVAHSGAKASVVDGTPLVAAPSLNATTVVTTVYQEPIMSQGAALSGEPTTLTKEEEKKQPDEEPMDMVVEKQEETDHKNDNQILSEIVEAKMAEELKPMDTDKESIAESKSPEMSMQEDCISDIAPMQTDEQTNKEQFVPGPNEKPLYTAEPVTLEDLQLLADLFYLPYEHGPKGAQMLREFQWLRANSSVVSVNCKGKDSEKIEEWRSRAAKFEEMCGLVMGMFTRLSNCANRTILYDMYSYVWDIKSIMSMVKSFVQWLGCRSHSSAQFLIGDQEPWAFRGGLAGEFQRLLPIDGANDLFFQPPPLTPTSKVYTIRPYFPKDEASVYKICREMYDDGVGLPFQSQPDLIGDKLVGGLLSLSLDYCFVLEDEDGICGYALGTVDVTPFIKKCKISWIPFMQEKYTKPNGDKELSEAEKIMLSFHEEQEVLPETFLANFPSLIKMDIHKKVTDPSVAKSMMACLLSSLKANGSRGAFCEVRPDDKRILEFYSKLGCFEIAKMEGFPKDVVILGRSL

`O=C(O)[C@@H]1C[C@@H](O)CN1C(=O)[C@@H]1CCCN1`: “ΔH of complex formation” 1.83 kcal/mol (iron(III); MA2 complex, I 0.15 M NaCl).
The transferrin binding of `CN(O)C(=O)CCC(=O)NCCCN(CCCCN(CCCNC(=O)CCC(=O)N(C)O)C(=O)CCC(=O)N(C)O)C(=O)CCC(=O)N(C)O.[89Zr]` is reported as 13% (TF (Homo sapiens, UniProt P02787); transchelation; concentration not given, 7 days, 37 °C, with: 10 equiv apo-transferrin).
`O=C(CCC(=O)OCCNC(=O)[C@@H](Cc1ccccc1)NC(=O)[C@@H](Cc1ccccc1)NC(=O)CCNc1ccc([N+](=O)[O-])c2nonc12)NCCS(=O)(=O)O` has a conversion of roughly 11% (porcine liver esterase; substrate; 1.0 wt%, 24 h, pH 7.4, with: esterase 1 U/mL).
`C=C(C)C(=O)NCCCCCC(=O)N[C@@H](Cc1ccccc1)C(=O)N[C@@H](CCCCN)C(=O)N[C@@H](Cc1ccccc1)C(=O)N[C@@H](CC(C)C)C(=O)NCCCCCC(=O)N[C@H](CCCCN)C(=O)N[C@H](CCCCN)C(=O)N[C@H](CCCCN)C(=O)N[C@H](CCCCN)C(=O)N[C@H](CCCCN)C(=O)N[C@H](CCCCN)C(=O)N[C@H](CCCCN)C(=O)N[C@H](CCCCN)C(=O)N[C@H](CCCCN)C(=O)N[C@H](CCCCN)C(N)=O` gave a degradation time of no more than 5 min (CTSB; substrate, MALDI-TOF MS; 65 µM, pH 5, 37 °C).
For `CC(C)(C)OC(=O)NC(CSC(Cc1ccccc1)C(=O)NCCCc1cccnc1)CC1c2ccccc2-c2ccccc21` (mixture of isomers), the heme destroyed was 35% (CYP3A4; 16 µM, 2 h, with: 10 mM H2O2; relative to: ligand-free enzyme).
With `CCOc1c(C(C)(C)O)sc2cnc(Nc3ccc(N4CCC(N5CC6(COC6)C5)CC4)cc3OC)nc12` the inhibition was 45% (CACNA1C; ion current, inhibitor, patch clamp; 30 µM).
`CCc1cc(C)nc2c(CC(=O)N(CC)CC)c(-c3ccc(OCC[18F])cc3)nn12`: “total distribution volume” 7.35 ± 1.26 mL/cm3 (Translocator protein (Tspo, Rattus norvegicus, UniProt P16257); Logan plot analysis; rat C6 glioma model, tumor; dose not given, 60 min dynamic PET).
`CCOC(=O)CN1CCN(CC(=O)OCC)CCN(Cc2cc(-c3nc4ccccc4s3)cc(OC)c2O)CC1` has a pCu of 10.6 (copper(II) ion; metal chelation, spectrophotometric titration; aqueous solution; 50 µM, pH 7.4, with: Cu(II) 50 µM; higher = stronger binding).
`COc1ccc2cc(NC(=O)c3cc(-c4cccnc4)nc4ccccc34)ccc2c1` gave a Ki of 420 nM (CYP3A4; inhibitor).
`NC(=S)N/N=C/c1ccccn1` — result for “log stability constant”: 17.8 (Zn2+ complex; potentiometric titration; 25 °C).
For `CC(C)C[C@@H]1NC(=O)[C@H](C)NC(=O)[C@H](CC2CCN(C(=N)N)CC2)NC(=O)[C@H](Cc2ccccc2)NC(=O)[C@H](CCCNC(=N)N)NC(=O)[C@H](C)NC(=O)[C@@H]2CCCN2C(=O)[C@@H](N)CSSC[C@@H](C(=O)O)NC(=O)[C@H](Cc2c[nH]c3ccccc23)NC1=O`, the cleavage was no more than 0.12% (plasmin; substrate; 1 h, with: plasmin 2 nM).
`O=C(NCc1cccc(CN2CCCC2=O)c1)NCC(c1ccccc1)c1ccccc1` gave an IC50 of greater than 30000 nM (CACNA1C; calcium signal, fluorescence).
For `COc1cc(-c2nc3ccccc3s2)cc(CN2CCN(CC(=O)O)CCN(CC(=O)O)CC2)c1O`, the pCu was 12.4 (copper(II) ion; metal chelation, spectrophotometric titration; aqueous solution; 50 µM, pH 7.4, with: Cu(II) 50 µM; higher = stronger binding).
`CN(C(=O)c1ccn2ncc(-c3ccc(C(N)=O)cc3)c2c1)c1ccc(C#N)cn1`: inhibition “no inhibition” (major cytochrome P450 isoenzymes; concentration not given).
For `[64Cu+2].c1ccc(CNCc2ccc(CN3CCCN4CCNCCCN(CC4)CC3)cc2)nc1`, the tissue uptake was 12.2 ± 1.95 %ID/g (CXCR4; NOD/SCID mouse, U87 and U87-stb-CXCR4 xenografts, spleen; iv, 480 min, ex vivo).
`O=c1c(/C=N/NC(=S)N/N=C/c2ccccn2)coc2ccccc12` — result for “log stability constant”: 18.4 (Zn2+ complex; potentiometric titration; 25 °C).
`NS(=O)(=O)Nc1ncnc(OCCOc2ncc(Br)cn2)c1-c1ccc(Br)cc1`: “contribution to total CLint” < 1% and 0.1% (Cytochrome P450 2C6 (Cyp2c6, Rattus norvegicus, UniProt P05178); substrate, refers to: compound formation; rat, male; pH 7.4, mRNA abundance scaled).
`NC(=S)N/N=C/c1ccccc1O`: “log stability constant” 17.6 (Zn2+ complex; potentiometric titration; 25 °C).
The hydrodynamic diameter of `CCCCCCCCCCCCCCCC(=O)OCC(CSC[C@H](N)C(=O)N[C@@H](CO)C(=O)N[C@@H](CCCCN)C(=O)N[C@@H](CCCCN)C(=O)N[C@@H](CCCCN)C(=O)N[C@@H](CCCCN)C(=O)NCCCCCC(=O)N[C@@H](CCCCN)C(=O)N[C@@H](CC(C)C)C(=O)N[C@H](C(=O)N[C@@H](Cc1ccccc1)C(=O)N[C@@H](Cc1ccccc1)C(=O)N[C@@H](Cc1ccc2ccccc2c1)C(=O)O)C(C)C)OC(=O)CCCCCCCCCCCCCCC` (stereo partly drawn) is reported as roughly 66 nm (Amyloid-beta precursor protein, fibrillar amyloid-beta (APP, Homo sapiens, UniProt P05067); dynamic light scattering; supernatant; compound alone).
The remaining substrate of `CC(C)C[C@H](NC(=O)[C@@H]1CCCN1)C(=O)N[C@@H](CO)C(=O)N[C@@H](CC(C)C)C(=O)N[C@@H](CCCNC(=N)N)C(=O)N[C@@H](CO)C(=O)N[C@@H](CCCCN)C(=O)O` is reported as less than 10% (Matrix metalloproteinase-9 (MMP9, Homo sapiens, UniProt P14780); substrate, HPLC; 500 µM, 72 h, pH 7.5, 37 °C).
The IC50 of `O=C(NCCCc1cccnc1)C(Cc1ccccc1)SCC(Cc1ccccc1)NS(=O)(=O)c1ccccc1` (stereo not drawn) is reported as 260 nM (CYP3A4; enzyme activity, inhibitor).
`[64Cu+2].c1cnc(CNCc2ccc(CN3CCCN4CCNCCCN(CC4)CC3)cc2)nc1` has a tissue uptake of 12.9 ± 1.18 %ID/g (CXCR4; NOD/SCID mouse, U87 and U87-stb-CXCR4 xenografts, spleen; iv, 60 min, ex vivo).
The formation rate of `CC(=O)OC1(C(C)=O)CCC2C3C=C(C)C4=CC(=O)C(O)CC4(C)C3CCC21C` (stereo not drawn) is reported as 2.6 ± 0.04 pmol/min/pmol P450 (CYP3A4; substrate; recombinant enzyme; 28 µM, 25 min).
`COc1cc(-c2nc3ccccc3s2)cc(CN2CCN(CC(=O)OC(C)C)CCN(CC(=O)OC(C)C)CC2)c1O` has a pCu of 11.1 (copper(II) ion; metal chelation, spectrophotometric titration; aqueous solution; 50 µM, pH 7.4, with: Cu(II) 50 µM; higher = stronger binding).
`CN(C(=O)c1ccc2ccccc2c1)[C@H]1NC(=O)[C@H](Cc2ccccc2)NC(=O)[C@H](NC(=O)[C@@H](N)Cc2ccc(Cl)cc2)CSSC[C@@H](C(=O)N[C@@H](Cc2ccc3ccccc3c2)C(N)=O)NC(=O)[C@H](Cc2ccccc2)NC(=O)[C@H](CCCCN)NC1=O` has a hydrolysis of 28% (trypsin; substrate, RP-HPLC; concentration not given, 6 days, pH 8.1).
`CC(C)(C)OC[C@@H](NC(=O)CNC(=O)CN1CCN(CC(=O)OC(C)(C)C)CCN(CC(=O)OC(C)(C)C)CCN(CC(=O)OC(C)(C)C)CC1)C(=O)N[C@H](COC(C)(C)C)C(=O)NCC(=O)NCC(=O)NCC(=O)N[C@@H](Cc1ccccc1)C(=O)O` gave a metabolized peptide of 56% (CTSB; substrate, LC/MS; 24 h, pH 5.0, room temperature).
For `NC(=O)N/N=C/c1ccccn1`, “log stability constant” read 16.6 (Zn2+ complex; potentiometric titration; 25 °C).
`COc1cc(-c2nc3ccccc3s2)cc(CN2CCN(CC(=O)OC(C)(C)C)CCN(CC(=O)OC(C)(C)C)CC2)c1O` has a pCu of 10.5 (copper(II) ion; metal chelation, spectrophotometric titration; aqueous solution; 50 µM, pH 6.6, with: Cu(II) 50 µM; higher = stronger binding).
`CC(=O)Nc1ncc(CN2CC[C@H](Oc3cccc([18F])n3)C[C@@H]2C)s1` has a peak uptake of roughly 4 SUV (Protein O-GlcNAcase (OGA, Homo sapiens, UniProt O60502); PET; healthy human, striatum and cerebellum; baseline).
With `CC(=O)N(c1ccccc1)c1nc(COC(=O)[C@H]2CC(=O)N(c3cccc4ccccc34)C2)cs1` the IC50 was greater than 30000 nM (CACNA1C; calcium signal, fluorescence).

Excerpt of the above:
`NC(=S)N/N=C/c1ccccn1` — result for “log stability constant”: 17.8 (Zn2+ complex; potentiometric titration; 25 °C).
For `COc1cc(-c2nc3ccccc3s2)cc(CN2CCN(CC(=O)O)CCN(CC(=O)O)CC2)c1O`, the pCu was 12.4 (copper(II) ion; metal chelation, spectrophotometric titration; aqueous solution; 50 µM, pH 7.4, with: Cu(II) 50 µM; higher = stronger binding).
`COc1cc(-c2nc3ccccc3s2)cc(CN2CCN(CC(=O)OC(C)(C)C)CCN(CC(=O)OC(C)(C)C)CC2)c1O` has a pCu of 10.5 (copper(II) ion; metal chelation, spectrophotometric titration; aqueous solution; 50 µM, pH 6.6, with: Cu(II) 50 µM; higher = stronger binding).
`CN(C(=O)c1ccn2ncc(-c3ccc(C(N)=O)cc3)c2c1)c1ccc(C#N)cn1`: inhibition “no inhibition” (major cytochrome P450 isoenzymes; concentration not given).
`CCc1cc(C)nc2c(CC(=O)N(CC)CC)c(-c3ccc(OCC[18F])cc3)nn12`: “total distribution volume” 7.35 ± 1.26 mL/cm3 (Translocator protein (Tspo, Rattus norvegicus, UniProt P16257); Logan plot analysis; rat C6 glioma model, tumor; dose not given, 60 min dynamic PET).
